Assay results of several laboratories.
Lines come from different studies, so protocols differ.
B1: mtnA (Bacillus subtilis, UniProt O31662); chain MTHSFAVPRSVEWKETAITILNQQKLPDETEYLELTTKEDVFDAIVTLKVRGAPAIGITAAFGLALAAKDIETDNVTEFRRRLEDIKQYLNSSRPTAINLSWALERLSHSVENAISVNEAKTNLVHEAIQIQVEDEETCRLIGQNALQLFKKGDRIMTICNAGSIATSRYGTALAPFYLAKQKDLGLHIYACETRPVLQGSRLTAWELMQGGIDVTLITDSMAAHTMKEKQISAVIVGADRIAKNGDTANKIGTYGLAILANAFDIPFFVAAPLSTFDTKVKCGADIPIEERDPEEVRQISGVRTAPSNVPVFNPAFDITPHDLISGIITEKGIMTGNYEEEIEQLFKGEKVH
B2: enzyme (UniProt A0A6P1C6J0); chain PEFDITVVIPTFKAEKTVGQCLESVLSQQGVSTEIIVVDGGSPDATISIVQSFSSTNLTIISEPDRGIYDAINKGVSRAQGGMIGVLGADDVYKPNVLSVVKENASRGVEIVAGLTLIDGQLRADEQYRPAALISGIPFGHNAMFASQEAYRKVGLYDLAYRICADAEWVHRAIKSDISCRKVEQVFVEFGTEGTSSTNPEEIIAEACSVIQRNFPFLLKEEAKYLLYGVRGWGETSRIEQILRKYGHESVLFVTALQEAFPAVET
B3: enzyme (Methylibium petroleiphilum, UniProt A2SI32); chain PFAQIYLIEGRTEEQKRAVIEKVTQAMMEAVGAPKENVRVWIHDVPKENWGIGGVSAKALGR
B4: enzyme (Lactiplantibacillus plantarum, UniProt Q06115); chain CTAITYQSYNNYFGRNFDYEISYNEMVTITPRKYPLVFRKVENLDHHYAIIGITADVESYPLYYDAMNEKGLCIAGLNFAGYADYKKYDADKVNITPFELIPWLLGQFSSVREVKKNIQKLNLVNINFSEQLPLSPLHWLVADKQESIVIESVKEGLKIYDNPVGVLTNNPNFDYQLFNLNNYRALSNSTPQNSFSEKVDLDSYSRGMGGLGLPGDLSSMSRFVRAAFTKLNSLSMQTESGSVSQFFHILGSVEQQKGLCEVTDGKYEYTIYSSCCDMDKGVYYYRTYDNSQINSVSLNHEHLDTTELISYPLRSEAQYYAVN
B5: enzyme (Bilophila wadsworthia, UniProt E5Y8P9); chain MKTVSEQMELARKAQAIVNDYTQEQIDEICLAIGWEVYEDENIAKLAKMAVEETGYGNVQSKIIKHKRKVGGVLHDIKGAKSVGLIERNEETGISKYAKPVGVVCAILPATNPTATCGGKAVGILKGRNAVIFKPSSRALKSTTEAINMMRAGLRKVGAPEDLIQVLEDPSREAITELMKVSDLIVATGSGQVVRAAYSSGTPAYGVGQGNACAIVAEDADVAEAAKMICGSKLFDYATSCSSENAVIPVEAVYDQFMAEMKKNGCYLVTGEDREKLKNHMWKPNAKGKIALNPDIIAKSAQVIADGAGISIPEGTDILLVEGMEPILGDKFHDEKISPVLTVYKAKDFKDAYRILVELTNLVGRGHSCGIHTYKHEYIEFLGEHMKSSRITVRQSMSAGNGGHPFNRMPSTATLGCGTWGGNSTTENVHWRHFINVTWVNEPVAPWTFTDEDMWGDFWKKYGK
B6: SCO6712 Y229F (Streptomyces coelicolor, UniProt Q9XAL8); chain AKGITARTAPAGGEVRHLKMYAEKLADGQMGYGFEKGKASVPGPLIEVNEGDTLHIEFTNTMDVRASLHVHGLDYEISSDGTAMNKSDVEPGGTRTYTWRTHKPGRRDDGTWRPGSAGYWHYHDHVVGTEHGTGGIRNGLYGPVIVRRKGDVLPDATHTIVFNDMTINNRKPHTGPDFEATVGDRVEIVMITHGEFYHTFHMHGHRWADNRTGILTGPDDPSRVIDNKITGPADSFGFQIIAGEGVGAGAWMYHCHVQSHSDMGMVGLFLVKKPDGTIPGYEPHEHGGATAKSGESGEPTGGAAAHEHEH
B7: CYP4F3 A27G/C46R/I34V/M14V/R49Q/W12G (Homo sapiens, UniProt Q08477); chain MALLLAVFLLGPVAASPWLLLLLVGGSWLLARVLAWTYTFYDNCRRLQCFPQPPKRNWFLGHLGLVTPTEQGMRVLTQLVATYPQGFKVWMGPIFPVIRFCHPNIIRSVINASAAIVPKDKVFYSFLKPWLGDGLLLSAGEKWSRHRRMLTPAFHFNILKPYMKIFNESVNIMHAKWQLLASEGSARLDMFEHISLMTLDSLQKCVFSFDSHCQEKPSEYIAAILELSALVTKRHQQILLYIDFLYYLTPDGQRFRRACRLVHDFTDAVIQERRRTLPSQGVDDFLQAKAKSKTLDFIDVLLLSKDEDGKKLSDEDIRAEADTFMFEGHDTTASGLSWVLYHLAKHPEYQERCRQEVQELLKDREPKEIEWDDLAQLPFLTMCIKESLRLHPPVPAVSRCCTQDIVLPDGRVIPKGIICLISVFGTHHNPAVWPDPEVYDPFRFDPKNIKERSPLAFIPFSAGPRNCIGQAFAMAEMKVVLGLTLLRFRVLPDHTEPRRKPELVLRAEGGLWLRVEPLS
B8: enzyme (Parabacteroides distasonis, UniProt A0A7L5EB83); chain QSETNRLDSIMPVRGLAIAAPSAQKLDLFLKFVQEELAPSHFNLLILRVDWNYAYESHPELRDPTPLTREDVKKIVKVCRDNGIRIAPQINLLGHQSWAETTYALLREYPEFDETPHVDTKNYTGWPNSDGLYCKSYCPLHPEVHKIVFALVDELTDVFETQLFHAGMDEVFYIGHDSCVRCGGHDKAELYAGEVTKIQNHLASQGKRLMIWGDRLIDGKTTGIGAWEASMNNTYRAIDLIPKDVFICDWHYERAEQTAVYFAMKGFDVATCPWRKPQIALQQVDDMIHFRQHSNPEMSRHFQGIIETVWSGTDSFLEAYYNPTTYKQEVSDAVTVKKLIEKYKALENR
B9: enzyme H459A (Methanosarcina mazei, UniProt Q8PVB1); chain MSEQRSVPLREHLLALKPCRHGGLIQETSETYGIPENEILDFSANFNPLGSPFDYPENGLNFEDIIKKSCGKLLEYPDNRYVEFREAAARFVGLGVTPQSIVPGNGSTEIVRLVVESVIEKGDKVLLPWPTFGEYEMQCRITGAEPVCPSQEEVNTLPDEVLEEAKILFICNPNNPTGKLRTREELKVLAERCREHKTLLYVDEAFIELSDPSQSVADLPAENNYVFVMRSLTKDFAIPGIRMGFGIAPPAMADILNTARLSWNLGAIANNTGIALLNIEGGIDSPYLKKAREMILKEGETLKAKIDRIRGFEAGEVNVNFILVDVSKFMLNSSELTARLAARGVLVRDCVSFHGLGKNYIRVAVRTEKENDRLIAAIGDVITEWGREQAKNELQHVIEKASEEGIGGRKTCEYYPCHFEGQNCTFCFCPFYPCENEKTGGKWIQSSRGGRVWSCVDCALVHKKEIAQKILDCLMHEGDTDELVKVAWKEVMEPIL
B10: enzyme S252E/S281E/S285E/S287E (Schizosaccharomyces pombe, UniProt P78804); chain MSTPYEPEFQQAYKEIVGSIESSKLFEVHPELKRVLPIISIPERVLEFRVTWEDDKGNCRVNTGYRVQFNSALGPYKGGLRFHPSVNLSILKFLGFEQIFKNALTGLPMGGGKGGSDFDPKGKSDNEIRRFSQAFMRQLFRYIGPQTDVPAGDIGVTGFVVMHMFGEYKRLRNEYSGVVTGKHMLTGGSNIRPEATGYGVVYYVKHMIEHRTKGAETLKGKRVAISGSGNVAQYAALKCIQEGAIVKSISDEKGVLIAKTAEGLVPEEIHEIMALKEKRAEIADEAELCKKHHYIAGARPWTNVGEIDIALPCATQNEVSGEEAAALIKQGCRYVAEGSNMGSSAEAVEVFEKSRASGEGCWLAPGKAANAGGVAVSGLEMAQNAQFSTWTHAEVDAKLAGIMQNIFEQSTDVASKYCDSGSNNIPSLVDGANIAGFLKVATAMQAVGDWW
B11: enzyme (Rhodopseudomonas palustris, UniProt Q6N7F5); chain MSNTHPAVAAIEDYADVLARFRREDLEALFDGNFATGINVCIECCDRHVAGGGTALDWESQDGRTASFSFAEMKDYAARVANLLVAQGVKPGDVVAGMLPRTPELLALILGTWRAGAVYQPLFTAFGPKAIEHRVKMSAAKLVVTDLANRAKLADVADCPTVAIVLRPGETAPLGDLDFHAEIAAQSTEFAPVLRKGTDLFLMMSTSGTTGLPKGVPVPINALPAFYSYIRDAVDLRAGDIFWNIADPGWAYGLYYAVTGPLLHGHATTFYDGPFTAESTYGLIKRRGITNLAGAPTAYRLLIAAGPEAAAPVKGQLRVVSSAGEPLNPEVIRWFAEHLAAPIHDHYGQTELGMVVNNHHRLRHTVHPGSAGLAMPGFRVAVLDEHSNELPPNVPGVLSVDLKRSPLMWFSGYWQQETPAIEGGYYRTGDTVELEPDGSISFVGRADDVITSSGYRIGPFDVESALIEHAAVIEAAVIGKPDPERTEIVKAYVVLAKDVTPSEALAEELRQYVKKRLSAHAYPREIEFLEQLPKTPSGKLQRFILRKRDTEPAGTTQGSSSAA
UniProt P09546, sequence (whole entry, looked up): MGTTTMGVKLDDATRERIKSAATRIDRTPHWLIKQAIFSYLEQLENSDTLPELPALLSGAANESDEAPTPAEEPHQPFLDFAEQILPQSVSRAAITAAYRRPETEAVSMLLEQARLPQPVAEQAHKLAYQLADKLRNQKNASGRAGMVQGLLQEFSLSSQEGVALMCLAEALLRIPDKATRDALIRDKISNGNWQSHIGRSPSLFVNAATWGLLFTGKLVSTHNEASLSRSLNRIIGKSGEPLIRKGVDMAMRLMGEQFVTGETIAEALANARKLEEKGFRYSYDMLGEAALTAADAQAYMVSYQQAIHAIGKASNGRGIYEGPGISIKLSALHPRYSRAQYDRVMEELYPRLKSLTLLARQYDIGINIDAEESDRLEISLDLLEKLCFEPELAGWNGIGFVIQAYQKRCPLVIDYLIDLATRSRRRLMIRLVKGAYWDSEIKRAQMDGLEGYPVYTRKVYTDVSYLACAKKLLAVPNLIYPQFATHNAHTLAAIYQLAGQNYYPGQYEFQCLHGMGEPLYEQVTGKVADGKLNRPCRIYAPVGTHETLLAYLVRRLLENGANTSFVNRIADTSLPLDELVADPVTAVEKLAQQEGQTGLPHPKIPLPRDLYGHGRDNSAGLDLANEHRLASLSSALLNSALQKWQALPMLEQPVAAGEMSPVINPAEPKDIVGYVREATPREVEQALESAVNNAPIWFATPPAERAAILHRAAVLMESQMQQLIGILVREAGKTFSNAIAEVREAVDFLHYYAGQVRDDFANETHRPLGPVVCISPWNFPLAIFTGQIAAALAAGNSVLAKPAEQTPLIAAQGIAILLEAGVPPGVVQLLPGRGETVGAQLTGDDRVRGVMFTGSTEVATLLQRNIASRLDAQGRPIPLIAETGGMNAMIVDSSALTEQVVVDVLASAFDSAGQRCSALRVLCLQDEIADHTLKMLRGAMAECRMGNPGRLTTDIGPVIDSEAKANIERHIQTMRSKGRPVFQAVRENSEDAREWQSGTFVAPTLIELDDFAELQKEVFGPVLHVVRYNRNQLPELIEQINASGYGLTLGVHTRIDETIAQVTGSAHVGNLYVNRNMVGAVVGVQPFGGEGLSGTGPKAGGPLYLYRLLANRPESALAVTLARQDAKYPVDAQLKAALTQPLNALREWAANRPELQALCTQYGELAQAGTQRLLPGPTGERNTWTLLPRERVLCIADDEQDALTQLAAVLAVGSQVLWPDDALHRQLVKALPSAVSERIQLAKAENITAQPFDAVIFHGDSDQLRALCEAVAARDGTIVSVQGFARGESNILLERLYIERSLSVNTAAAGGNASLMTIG
UniProt Q9SRM3, sequence (whole entry, looked up): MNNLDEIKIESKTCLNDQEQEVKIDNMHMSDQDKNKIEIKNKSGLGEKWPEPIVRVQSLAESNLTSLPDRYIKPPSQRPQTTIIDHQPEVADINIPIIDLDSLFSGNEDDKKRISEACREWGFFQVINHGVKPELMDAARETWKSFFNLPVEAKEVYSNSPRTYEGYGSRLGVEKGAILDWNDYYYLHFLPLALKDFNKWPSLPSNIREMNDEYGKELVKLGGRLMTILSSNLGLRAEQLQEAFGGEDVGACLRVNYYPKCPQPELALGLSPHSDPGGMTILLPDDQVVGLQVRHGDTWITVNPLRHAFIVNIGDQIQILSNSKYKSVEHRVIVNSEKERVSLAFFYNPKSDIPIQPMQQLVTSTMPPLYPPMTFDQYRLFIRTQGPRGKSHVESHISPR

Molecule | tested on | assay | system | conditions | scale | endpoint | value
B1 (mtnA) | O=P(O)(O)O[C@H]1O[C@H](CO)[C@@H](O)[C@H]1O | steady-state kinetics |  | pH 7.5, 25 °C |  | Km | 9400 µM
B2 (enzyme) | C[C@@H]1O[C@H](OP(=O)(O)OP(=O)(O)OC[C@H]2O[C@@H](n3cnc4c(=O)[nH]c(N)nc43)[C@H](O)[C@@H]2O)[C@@H](O)[C@H](O)[C@@H]1O | steady-state kinetics |  | pH 7.5, 25 °C, apparent |  | Km | 40 µM
B3 (enzyme) | C/C(=C\C=C(/O)C(=O)O)C(=O)O | steady-state kinetics |  | pH 7.3, 24 °C |  | Km | 105 µM
B4 (enzyme) | CC(C)C[C@H](NC(=O)CC[C@@H](C)[C@H]1CC[C@H]2[C@@H]3[C@H](O)C[C@@H]4C[C@H](O)CC[C@]4(C)[C@H]3C[C@H](O)[C@]12C)C(=O)O | steady-state kinetics |  | pH 6.2, 37 °C |  | Km | 1120 µM
putA (Escherichia coli, UniProt P09546) | COC1=C(OC)C(=O)C(C/C=C(\C)CCC=C(C)C)=C(C)C1=O | steady-state kinetics |  | pH 7.4, 20 °C, together with: proline 200 mM |  | Km | 16 µM
B5 (enzyme) | NC(=O)c1ccc[n+]([C@@H]2O[C@H](COP(=O)(O)OP(=O)(O)OC[C@H]3O[C@@H](n4cnc5c(N)ncnc54)[C@H](OP(=O)(O)O)[C@@H]3O)[C@@H](O)[C@H]2O)c1 | steady-state kinetics |  | pH 9.5, apparent, cofactor varied |  | Km | 680 µM
acsA D449E (Pseudomonas chlororaphis) | O=C(O)CCC(F)(F)F | steady-state kinetics |  | pH 7 |  | Km | 460 µM
enzyme (Arabidopsis thaliana, UniProt Q9SRM3) | CC/C=C\C[C@@H]1C(=O)CC[C@@H]1CC(=O)O | steady-state kinetics |  | pH 7.5, 20 °C |  | Km | 68.9 µM
B6 (SCO6712 Y229F) | CCn1c(=NN=c2sc3cc(S(=O)(=O)O)ccc3n2CC)sc2cc(S(=O)(=O)O)ccc21 | steady-state kinetics |  | pH 7, 37 °C, NaCl 150 mM, together with: O2 cosubstrate |  | Km | 2500 µM
B7 | CCCCC/C=C\C[C@@H](O)/C=C/C=C/C=C\[C@@H](O)CCCC(=O)O | steady-state kinetics |  | pH 7.4, together with: LTB4 |  | Km | 56.2 µM
B8 (enzyme) | CC(=O)N[C@H]1[C@H](Oc2ccc([N+](=O)[O-])cc2)O[C@H](CO)[C@@H](O)[C@@H]1O[C@@H]1O[C@H](CO)[C@H](O)[C@H](O)[C@H]1O | steady-state kinetics |  | pH 6, 50 °C |  | Km | 6870 µM
B9 (enzyme H459A) | Nc1ncnc2c1ncn2[C@@H]1O[C@H](COP(=O)(O)OP(=O)(O)OP(=O)(O)O)[C@@H](O)[C@H]1O | steady-state kinetics |  | pH 8.5, 25 °C, apparent, anoxic, together with: L-Thr 10 mM |  | Km | 90 µM
enzyme (UniProt F0RRL2) | O=P(O)(O)O[C@H]1O[C@H](CO)[C@@H](O)[C@H](O)[C@H]1O | steady-state kinetics |  | pH 5.5, 37 °C, apparent |  | Km | 25200 µM
B10 (enzyme S252E/S281E/S285E/S287E) | NC(=O)c1ccc[n+]([C@@H]2O[C@H](COP(=O)(O)OP(=O)(O)OC[C@H]3O[C@@H](n4cnc5c(N)ncnc54)[C@H](OP(=O)(O)O)[C@@H]3O)[C@@H](O)[C@H]2O)c1 | steady-state kinetics |  | pH 7, 30 °C, apparent |  | Km | 360 µM
GSGAGSETVV | human MAGI1-2/6 PDZ construct (MBP fusion) | automated holdup | peptide, crude extract | concentration not given, uncorrected, unit not given | relative to: biotin control resin, higher = stronger binding | binding intensity | 0.197
B11 (enzyme) | CC(C)C(=O)O | steady-state kinetics |  | pH 7.5, 37 °C |  | Km | 72.3 µM

A few entries again:
Molecule | tested on | assay | system | conditions | scale | endpoint | value
B5 (enzyme) | NC(=O)c1ccc[n+]([C@@H]2O[C@H](COP(=O)(O)OP(=O)(O)OC[C@H]3O[C@@H](n4cnc5c(N)ncnc54)[C@H](OP(=O)(O)O)[C@@H]3O)[C@@H](O)[C@H]2O)c1 | steady-state kinetics |  | pH 9.5, apparent, cofactor varied |  | Km | 680 µM
B4 (enzyme) | CC(C)C[C@H](NC(=O)CC[C@@H](C)[C@H]1CC[C@H]2[C@@H]3[C@H](O)C[C@@H]4C[C@H](O)CC[C@]4(C)[C@H]3C[C@H](O)[C@]12C)C(=O)O | steady-state kinetics |  | pH 6.2, 37 °C |  | Km | 1120 µM
